Measured values gathered from unrelated publications.
± marks the error that the study gave.

| SMILES | organism | assay | test system | setting | IC50 |
| --- | --- | --- | --- | --- | --- |
| Nc1ncnc2c(CN3C[C@H](CSc4cnccn4)[C@@H](O)C3)c[nH]c12 | Campylobacter jejuni | cell growth | Mueller-Hinton broth | 16.4 h | 2.9 ± 0.9 µM |
| COc1ccc(/C=N/N=C/c2ccc([N+](=O)[O-])s2)cc1 | Trypanosoma congolense | parasite growth, CellTiter-Glo | IL3000 bloodstream form | 72 h, 33 °C | 0.22 ± 0.04 µM |
| N=C(N)c1ccc(/C=C/c2ccc(C(=N)N)cc2O)cc1 | Streptococcus mutans | biofilm formation, crystal violet | – | – | 104 µM |
| C=C1CC[C@H]2Cc3c(c(C)c(O)c(C(=O)/C=C/c4ccccc4)c3OC)O[C@]2(C)CC[C@@H]2[C@@H]1CC2(C)C | human respiratory syncytial virus | viral replication, CPE reduction | HEp-2, A2 | – | 50 µM |
| Cc1[nH]c2ccccc2c1CCNC(=O)c1cccs1 | Listeria | Listeria comet tail motility, inhibitor | SK-OV-3 | – | 22 µM |
| C=C1CCC2CC3=C(OC2(C)CCC2C1CC2(C)C)C(C)(C)C(=O)C(=C(O)C=Cc1ccccc1)C3=O (stereo not drawn) | human respiratory syncytial virus | viral replication, CPE reduction | HEp-2, A2 | – | 25.8 ± 3.75 µM |
| COC1C=COC2(C)Oc3c(C)c(O)c4c(c3C2=O)C2=NC3(CCN(CC(C)C)CC3)NC2=C(NC(=O)C(C)=CC=CC(C)C(O)C(C)C(O)C(C)C(OC(=O)c2cncnc2)C1C)C4=O (stereo not drawn) | Mycobacteroides abscessus | – | ATCC 19977 | 50% human serum | 0.048 µM |
| COc1c(C)c2c(c(O)c1C(=O)C=Cc1ccccc1)CC1CCC(C)=CCC(C)(C)C=CCC1(C)O2 (stereo not drawn) | human respiratory syncytial virus | viral replication, CPE reduction | HEp-2, A2 | – | 49.6 ± 3.16 µM |
| COc1ccc(/C=C/c2cc(O)cc(O[C@@H]3O[C@H](CO)[C@@H](O)[C@H](O)[C@H]3O)c2)cc1O | Streptococcus mutans | biofilm formation, crystal violet | – | – | 106 µM |
| CC1=CCC(C)(C)C=CCC2(C)OC3=C(CC2CC1)C(=O)C(=C(O)C=Cc1ccccc1)C(=O)C3(C)C (stereo not drawn) | human respiratory syncytial virus | viral replication, CPE reduction | HEp-2, A2 | – | 13.1 ± 1.23 µM |
| COC1C=COC2(C)Oc3c(C)c(O)c4c(c3C2=O)C2=NC3(CCN(CC(C)C)CC3)NC2=C(NC(=O)C(C)=CC=CC(C)C(O)C(C)C(O)C(C)C(OC(=O)Nc2cccnn2)C1C)C4=O (stereo not drawn) | Mycobacteroides abscessus | – | ATCC 19977 | 50% human serum | 0.26 µM |
| CCCCCCSC[C@H]1CN(Cc2c[nH]c3c(N)ncnc23)C[C@@H]1O | Campylobacter jejuni | cell growth | Mueller-Hinton broth | 16.4 h | 1.3 ± 0.3 µM |
| CCN(CC)CC#CCNc1ccnc2cc(Cl)ccc12 | Plasmodium falciparum | schizont maturation | field isolates | Albumax medium | 0.11 µM |
| CSCC(CO)NCc1c[nH]c2c(N)ncnc12 (stereo not drawn) | Campylobacter jejuni | colony formation | – | 144 h, Mueller-Hinton agar | 135 ± 2.8 µM |
| Cc1ccc2c(c1)C(C(C)C)CCC21CCC2=C(O1)C(C)(C)C(=O)C(=C(O)C=Cc1ccccc1)C2=O (stereo not drawn) | human respiratory syncytial virus | viral replication, CPE reduction | HEp-2, A2 | – | 12.6 ± 0.92 µM |
| C[n+]1ccc(/C=C/c2ccc(O)c(O)c2)c2ccccc21 | Streptococcus mutans | biofilm formation, crystal violet | – | – | 104 µM |
| O=[N+]([O-])c1ccc(/C=N/N=C/c2ccc(O)cc2)s1 | Trypanosoma congolense | parasite growth, CellTiter-Glo | IL3000 bloodstream form | 72 h, 33 °C | 0.04 ± 0.01 µM |
| CC(C)=CCC1CC(=O)C(C)=CC2C=C(C)CC(c3ccccc3)C2C(=O)C2=C(O)C(C)(CC=C1C)C(=O)C(C)(C)C2=O (stereo not drawn) | human respiratory syncytial virus | viral replication, CPE reduction | HEp-2, A2 | – | 1.71 ± 0.61 µM |
| COc1ccc(/C=N/N=C/c2ccc([N+](=O)[O-])o2)cc1 | Trypanosoma brucei rhodesiense | parasite growth, CellTiter-Glo | IL1501 bloodstream form | 72 h | 2.88 ± 0.51 µM |
| C=C1CCC2Cc3c(O)c(C(=O)C=Cc4ccccc4)c(OC)c(C)c3OC2(C)CCC2C1CC2(C)C (stereo not drawn) | human respiratory syncytial virus | viral replication, CPE reduction | HEp-2, A2 | – | 50 µM |
| CCCCCC1CC2CCCC3CC(C)N=C(N1)N32 (stereo not drawn) | Mycobacterium intracellulare | microbial growth | ATCC23068 | – | 6.73 µM |
| O=[N+]([O-])c1ccc(/C=N/N=C/c2ccc(F)cc2)o1 | Trypanosoma congolense | parasite growth, CellTiter-Glo | IL3000 bloodstream form | 72 h, 33 °C | 0.18 ± 0.07 µM |
| CCCCCCCCCCCCCCCCC1CC(=O)NCCCN(C)CCCCN(C)CCCN1C (stereo not drawn) | Mycobacterium intracellulare | microbial growth, resazurin | ATCC23068 | – | 1.5 µg/mL |
| O=[N+]([O-])c1ccc(/C=N/N=C/c2ccc(Br)cc2)s1 | Trypanosoma brucei rhodesiense | parasite growth, CellTiter-Glo | IL1501 bloodstream form | 72 h | 0.94 ± 0.31 µM |
| CC(C)C1CCC2(C)C3CCC4(CCC5=C(O4)C(C)(C)C(=O)C(=C(O)C=Cc4ccccc4)C5=O)C2C13 (stereo not drawn) | human respiratory syncytial virus | viral replication, CPE reduction | HEp-2, A2 | – | 6.32 ± 0.69 µM |
| O=[N+]([O-])c1ccc(/C=N/N=C/c2ccc(Br)cc2)o1 | Trypanosoma brucei rhodesiense | parasite growth, CellTiter-Glo | IL1501 bloodstream form | 72 h | 0.86 ± 0.23 µM |
| COc1ccccc1NC(=O)OC1C(C)C(OC)C=COC2(C)Oc3c(C)c(O)c4c(c3C2=O)C2=NC3(CCN(CC(C)C)CC3)NC2=C(NC(=O)C(C)=CC=CC(C)C(O)C(C)C(O)C1C)C4=O (stereo not drawn) | Mycobacteroides abscessus | – | ATCC 19977 | 50% human serum | 0.15 µM |

Some of these lines once more:
| SMILES | organism | assay | test system | setting | IC50 |
| --- | --- | --- | --- | --- | --- |
| COc1ccc(/C=N/N=C/c2ccc([N+](=O)[O-])o2)cc1 | Trypanosoma brucei rhodesiense | parasite growth, CellTiter-Glo | IL1501 bloodstream form | 72 h | 2.88 ± 0.51 µM |
| C=C1CC[C@H]2Cc3c(c(C)c(O)c(C(=O)/C=C/c4ccccc4)c3OC)O[C@]2(C)CC[C@@H]2[C@@H]1CC2(C)C | human respiratory syncytial virus | viral replication, CPE reduction | HEp-2, A2 | – | 50 µM |
